# Experimental data pooled from the literature.
# Numbered parts are unrelated; each lists some results of a single study.

# Series 1
# Target: RNA binding protein fox-1 homolog 2, RRM domain, GST-SBP tag (RBFOX2, Homo sapiens, UniProt O43251-10, residues 100-194)
# Technique: RNA Bind-n-Seq
# Molecule type: RNA
# Matrix: in vitro
# Concentration: 365 nM
# Notes: natural RNA segment, single round, ends assumed
# Reference: no-protein control
# Direction: higher = stronger binding
# All sequences stand within: GGGAGUUCUACAGUCCGACGAUC … UGGAAUUCUCGGGUGCCAA
# Residues (chain): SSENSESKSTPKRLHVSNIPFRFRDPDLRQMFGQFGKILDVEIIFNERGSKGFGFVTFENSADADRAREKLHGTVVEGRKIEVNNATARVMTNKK
Oligonucleotide,RBNS enrichment (R)
AAAUAUGUCUGACAGGAUUGGAAUCAGACUAUGUGAUUUGCUUGUAAAGAUUAGUUUCAGUGAGUCCCAGGGACUAAUUAAGGUUUAUUUUUAAAAGCGUCUGCCUUGGU,1.07
CGGACUUCAGGGGACACGUUUAGUAUAUUAAGACAUGCUGAUGGAAACAGUAUCUUCAAAAAAAUCAGCAGCAAUUGAAAUGCUACAAAAGACUUUGUUUAAAGAUUUUA,1.19
CUAUUUUCUGUUGCCACAGGCUUUAAAGAAACUUUCUGAAUGGGGCCUGGCCCACUUCUCUUUCUCUCCUCCAAAUGAGGAGUUAAAAAUGUUACUAGCAUAGCCCACCC,0.605
AAAAAGAAACAAAAAUAUUUUUCCCCCUAAAAUAGGAGAGAGCCAAAACUGACCAAGGCUAUUCAGCAGUGAACCAGUGACCAAAGAAUUAAUUACCCUCCGUUUCCCAC,0.374
AAUAAACCUUUAUGUACUUAAAAUUAUACAGAAAAUAGAAUAAAGUUAAUACCAAACUUGUUUAGUUUUCACCUGAUGUUUUCAGUACAGAGAUGUGAAAAUACUGAAAA,0.379
UGAAAUAACUGCGAUUUUGUGAGCAAAACAUACUUGGAAAUGCUGAUUGAUUUUUAUGCUUGUUAGUGUAUUGCAAGAAACACAGAAAAUGUAGUUUUGUUUUAAUAAAC,0.81
GGUAGUCCCCAUGGGACCUUAAAAGACCCAUAGCUGAGUAGUCUCCCUUGUCUACCCUGCUUUAAGAGGGUGAAUGACGGAAUAGACUUUAUGGUGUCAGUGAGUAGUUU,0.505
GUGGAGUCAUGGUGUUAGUGUUCUGCCUUUUUAUGUUCUAAGACUACUUGUUAGAGGACGGAAGAUUUGCUACAGUGGUCUAGAGUUAAAAUGUGCUCUUUAGUUGCCCA,0.422
AGGACACUGUCAGUAGGGAACGGAAUGAAAACUCAAAUGUUGCCUGCAGUUGAGCAAGGAAGCUGAGGUUGGAACCAUUAAACUAUUUCUUCCCAUUUUCAAAAGGACCU,0.49
GCCUGUGCACACUUCACACACUGGGGCGGGACAUAGGCCGCAGGGACCCAGGGUCGCCUCAGGCAAAUGUGGUUGGUCGGUGGCUCCAAAGGCGAGAGGUUUUUCUUCCU,0.274
GGACAGCCCUCGACCUUAACUAUUUUCGAGACAGCACUGUGAAUCCAACCAAAAUGUCAAGUCCGUUCCGAAGGCAUUUUCCACUAGUUUUUGGACUAUGUAAACCACAU,0.43
UUGACACACUCCAGUCCUGAGCUGCUCUGCUGCCGCUUCCCUCAGUUAACCUUCUCACCGAAACCUUAGUUCAGGAUGGAUCAAGUGCUGUGACAGUGACAGCUCAUUUC,0.53

# Series 2
# Target: Histone acetyltransferase KAT6A, winged helix 1, GST fusion (KAT6A, Homo sapiens, UniProt Q92794, residues 1-85)
# Technique: protein binding microarray
# Molecule type: double-stranded DNA, one strand shown
# Matrix: in vitro
# Concentration: not given
# Notes: 8-mer, flanks averaged, mean of 2 arrays, mostly near background
# Reference: not given
# Direction: higher = stronger binding
# Construct (chain): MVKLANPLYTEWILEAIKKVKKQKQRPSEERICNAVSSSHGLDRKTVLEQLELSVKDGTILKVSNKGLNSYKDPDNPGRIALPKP
Oligonucleotide,E-score
CGCTATCC,0.208
ACGTCCTA,-0.107
CCATAATC,-0.0965
CGCGCCGA,0.393
GCGGCCCA,0.318
GAGAAATA,-0.096
CTTAAACC,-0.0976
CCGCTGAA,0.115
ATATCATC,-0.0691
AATTCCGA,-0.0812
AAGTGATC,-0.146
TAGATCTA,-0.0461
CGATGGCC,0.0961
ATGCTAAA,-0.185
CTATAGAC,-0.0689
ACGGTATA,0.235
CACCACGA,-0.231

# Series 3
# Target: Centromere-binding protein 1, full length, N-terminal tag (CBF1, Saccharomyces cerevisiae, UniProt P17106, residues 1-351)
# Sequence of UniProt P17106 (whole entry, looked up): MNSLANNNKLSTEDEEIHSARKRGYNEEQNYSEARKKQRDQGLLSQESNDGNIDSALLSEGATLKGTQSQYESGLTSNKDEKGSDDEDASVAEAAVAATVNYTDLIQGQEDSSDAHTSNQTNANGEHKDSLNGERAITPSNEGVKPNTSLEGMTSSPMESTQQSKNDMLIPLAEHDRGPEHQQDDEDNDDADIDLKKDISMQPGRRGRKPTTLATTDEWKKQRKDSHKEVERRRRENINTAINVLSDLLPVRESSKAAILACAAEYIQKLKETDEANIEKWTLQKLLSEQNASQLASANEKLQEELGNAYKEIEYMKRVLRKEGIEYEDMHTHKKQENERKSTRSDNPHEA
# Technique: protein-binding microarray
# Molecule type: double-stranded DNA, one strand shown
# Matrix: in vitro
# Concentration: 0.8 µM
# Notes: whole 60-bp probe, no competitor
# Direction: higher = stronger binding
# All sequences stand within: … GTCTTGATTCGCTTGACGCTGCTG
Oligonucleotide,fluorescence intensity [a.u.]
CTATCACAGTTCCGGAACCTAAGCCTAACGAAATTC,512
GAACGCAATTTTGGCTGCATCAGAATACATCGATAG,548
CTAAAAAGGACTGCGCAGGTGAGGGTTTTTACGTTC,555
CTATCGTTCATCGCAAGGGTGACGGCAGATGTATTC,514
CTATTAGGTGTGGGTCACCTGAATTTATTATTCTTC,1180
CTAGGACAACATTGGCGTGCGCGCCAATGTTGTTTC,491
CTATTAATAATCTACCACGTTTCAAATTCAATATTC,648
TGTACGAAGCTATTCAACGTGAATATAGTAGTTAGG,567
GAAAAAGTCAGAGCTCACGTCCATACAATTGAGTAG,540
GAAAAAAGACTCTTTCATGTGGGTAATTTACTATAG,521
GAATACGTTTTCAATCACGACCAAGAGTAAGGTTAG,627
TGTACGAAGCTATAGCACGATCCTATAGTAGTTAGG,489
CTATTGTTCAAGTTTCACCTGTTCATCAAGTATTTC,579
GAACACGTTACTAATTACGTGAAGTTTGTGATCTAG,766
CTACTTTTGCAGCGATTGGTGATGAAATGTTTCTTC,560
GAAAATTACCATCATGACGTGCTCCTATCAAAGTAG,561
CTACGGGGAACCTCCCACGTTCACAACCGCGCCTTC,480
TGTACGAAGCTATTTCTCATGACTATAGTAGTTAGG,538
CTATGTGATTATAATCACGTGATCAAATGCTTTTTC,36600

# Series 4
# Target: RING finger protein unkempt homolog, zinc fingers 1-6, SBP tag (UNK, Homo sapiens, UniProt Q9C0B0, residues 30-357)
# Sequence of UniProt Q9C0B0 (30-357, looked up): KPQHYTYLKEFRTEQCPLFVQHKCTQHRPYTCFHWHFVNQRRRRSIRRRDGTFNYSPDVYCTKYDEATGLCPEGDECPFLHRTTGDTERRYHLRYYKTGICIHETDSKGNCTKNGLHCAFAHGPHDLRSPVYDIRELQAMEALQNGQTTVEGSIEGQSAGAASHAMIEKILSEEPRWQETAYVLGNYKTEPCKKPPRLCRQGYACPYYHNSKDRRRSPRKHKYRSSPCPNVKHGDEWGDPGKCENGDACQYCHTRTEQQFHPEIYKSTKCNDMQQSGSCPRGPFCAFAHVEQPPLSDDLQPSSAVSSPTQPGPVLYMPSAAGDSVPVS
# Technique: RNA Bind-n-Seq
# Molecule type: RNA
# Matrix: in vitro
# Concentration: 100 nM
# Notes: RNA with constant flanks, vertebrate orthologous sites, ends assumed
# Reference: input RNA pool
# Direction: higher = stronger binding
# All sequences stand within: GGGAGUUCUACAGUCCGACGAUC … CAACAGAGGAUUGAGCAUCA
Oligonucleotide,bound/input enrichment [ratio]
AGCAGGUCAGGGAUUGAGGCCCACCUUCCCACAUAUACCAAGCAGGUACGGAAUCAACAGGAUGGGACAGCCAAGACCCUGAUGGACUCUUAACGUACUGUUAUGGGAGUGUCGACUCCU,0.261
UGGAGGGAGGUUUACUUCCUUCAACUUCAAUUUUUCAGGUUGUAGCUGAUUUUUUUUUUCCUCCUUUCUCUUCGCUGUUCUUUUGCUUCCUUUCUGUCUCCCAGACUUCAAAUACACAAG,0.405
AUCAUGGACGCUUUUACCUACCUCAGUGAGGUAACGUCUCCCCUGACGUUUGGUUGGCACUAGGGCCCAUCACACCUGAUCUGUCUUUCCACAUUUCAUCUCUUUAUGCUCACACUCAUC,0.933
UCAACUCAGGUUUUAUUUAUUUUGAGAUUAUCAAUUGUAUAAGUCUAAUUUAUUGACAAACAUGAUGGGAUUUAAAUUUUUUUAUUGUUGAAACCUUAACAGGCAAUUCAUAUUCCCAGC,0.294
AGCUUCUGGUGACAUUUGGCCUGGCCUUUCAGCAUAUGAUAACAGUCCAAGGUCACCCCAUAGUCCUUCUAUUGCCUCCCCACCCAGUCAGAGUUCAUCUUGCUCUGAUGCCCCUUUGCU,0.586
ACAAAGGCACUUUCUCCUUCGGUCUUUCAUUGUAAGAAGAAAUGGACCCAUGCACAUUUAUAUAGCUUUCUAAUAGCAUUAAAACCAAUGCCUUUUUAGACUCCUAUUUUUGAUGUAUAU,0.358
AUUUUUUUAAGUUUUUUUAAUUUAAUUUUUCCUUUUGGGGGUAAAGUUUGCUCUACCAAAUAGUGAUUGUAACAAAUUGAUCUGUUUUGGAUGUUGCUAUAGUGACAUGCAGUUAUAUAU,0.538
UCUCUCACUUAGCUGUGUCCAAAAUUGCUAUGAGGGUUGGAAACAUUGAUUAGUUUCAUGUAGAACUACACUGGCAGGUGCUCAAUUACCAUCAUAGCAAUGUCAAAUACCAUCACAGUA,1.47
CAGGGAGAAGAGAUCACAAACUCAAAGGAAAACUAUUAAAGAGUUCUAACAGUUAAGAGCUAGGAAAGAUUAGGACAAUUUUACAAAUGAGCAGUCGAAAAGAAAAGAACAGAAAAAGAC,0.778
UUUGGUUCCUUUCUGUUUUGGAGAAUUUAAAAAAAUAAUUAAGAAGUUUGCUCUCCCGAAUAGUGAACGUAACGAAACCGAUCUCGAUGUUGCUAUAGUGACAUGCGAUUCUAUGCGAUU,0.262
UUUAAUUAGAGGGUAGUGUAUGUUUCAUAAAGAAGAGUCUUUGUAAUUUUGUUUGUCCUAUAGUAUUUUGGAAUUUGUAUAAUGAGGAUGUUUAGAAGCCCUAUCAAUGGAUUUUUUUAA,0.955

# For quick reference, copied from above (series 1):
Oligonucleotide,RBNS enrichment (R)
AAAAAGAAACAAAAAUAUUUUUCCCCCUAAAAUAGGAGAGAGCCAAAACUGACCAAGGCUAUUCAGCAGUGAACCAGUGACCAAAGAAUUAAUUACCCUCCGUUUCCCAC,0.374
AAUAAACCUUUAUGUACUUAAAAUUAUACAGAAAAUAGAAUAAAGUUAAUACCAAACUUGUUUAGUUUUCACCUGAUGUUUUCAGUACAGAGAUGUGAAAAUACUGAAAA,0.379
UGAAAUAACUGCGAUUUUGUGAGCAAAACAUACUUGGAAAUGCUGAUUGAUUUUUAUGCUUGUUAGUGUAUUGCAAGAAACACAGAAAAUGUAGUUUUGUUUUAAUAAAC,0.81
GGUAGUCCCCAUGGGACCUUAAAAGACCCAUAGCUGAGUAGUCUCCCUUGUCUACCCUGCUUUAAGAGGGUGAAUGACGGAAUAGACUUUAUGGUGUCAGUGAGUAGUUU,0.505
GUGGAGUCAUGGUGUUAGUGUUCUGCCUUUUUAUGUUCUAAGACUACUUGUUAGAGGACGGAAGAUUUGCUACAGUGGUCUAGAGUUAAAAUGUGCUCUUUAGUUGCCCA,0.422
AGGACACUGUCAGUAGGGAACGGAAUGAAAACUCAAAUGUUGCCUGCAGUUGAGCAAGGAAGCUGAGGUUGGAACCAUUAAACUAUUUCUUCCCAUUUUCAAAAGGACCU,0.49
